# Published values from different studies.
# Lines come from different studies, so protocols differ. ± gives the spread as reported.
Structure (SMILES),target,assay,system,conditions,IC50
CC[C@@H](C)[C@@H](NC(=O)[C@@H](CCCCN)NC(=O)[C@H](NC(=O)[C@@H](CCC(N)=O)NC(=O)[C@H](N)CCCNC(=N)N)[C@H](C)CC)C(=O)N[C@H](Cc1c[nH]c2ccccc12)C(=O)N[C@H](Cc1ccccc1)C(=O)N[C@H](CCC(N)=O)C(=O)N[C@H](CC(N)=O)C(=O)N[C@H](CCCNC(=N)N)C(=O)N[C@H](CCCNC(=N)N)C(=O)N[C@H](CCSC)C(=O)N[C@H](CCCCN)C(=O)N[C@H](Cc1c[nH]c2ccccc12)C(=O)N[C@H](CCCCN)C(=O)N[C@H](CCCCN)C(=O)N[C@H](CO)C(=O)N[C@H](Cc1c[nH]c2ccccc12)C(=O)N[C@@H](C(=O)N[C@H](Cc1c[nH]c2ccccc12)C(=O)N[C@H](CCC(=O)O)C(=O)N[C@H](CCCCN)C(=O)N[C@H](CCCCN)C(=O)N[C@H](CC(C)C)C(=O)N[C@H](CCC(=O)O)C(=O)N[C@@H](C(=O)N[C@H](C)C(=O)N[C@@H](C(=O)N[C@H](CC(N)=O)C(=O)N[C@H](CC(C)C)C(=O)N[C@H](C)C(=O)N[C@H](Cc1c[nH]c2ccccc12)C(=O)N[C@@H](C(=O)N[C@H](C)C(=O)NCC(=O)N[C@H](CC(N)=O)C(=O)N[C@H](CO)C(=O)N[C@H](CC(N)=O)C(=O)N[C@H](CCCCN)C(=O)N[C@H](Cc1c[nH]c2ccccc12)C(=O)N[C@@H](C(=O)N[C@H](Cc1c[nH]c2ccccc12)C(=O)N[C@H](CCCCN)C(=O)O)[C@H](C)O)[C@H](C)O)C(C)C)[C@H](C)O)[C@H](C)O,cell death,PI staining flow cytometry,MEC1,90 min,1600 nM
CC(=O)N[C@H]1CSC(=O)[C@H](Cc2ccccc2)NC(=O)[C@H](Cc2ccccc2)NC(=O)CCCCCCCNC1=O,AgrC (Staphylococcus aureus),"reporter gene, inhibitor","Staphylococcus aureus, AH1677 (USA300 LAC)",24 h,340 nM
CCS(=O)(=O)[C@H]1[C@H](O)[C@@H](N)[C@@H](O[C@H]2[C@H](O[C@@H]3O[C@H](CO)[C@@H](O[C@H]4O[C@@H](CN)[C@@H](O)[C@H](O)[C@H]4N)[C@H]3O)[C@@H](O)[C@H](N)C[C@@H]2N)O[C@@H]1CO,"bacterial hybrid ribosome, human mitochondrial A site","cell-free translation, inhibitor",,,207 µg/mL
CC(=O)NC1C(OC2OC(CC(O)C3OC(n4ccc(=O)[nH]c4=O)C(O)C3O)C(O)C(O)C2NC(=O)COCc2ccc(N3CCC(Oc4ccc(OC(F)(F)F)cc4)CC3)cc2)OC(CO)C(O)C1O (centres unmarked),MraY,"enzyme activity, inhibitor",,,> 50000 nM
Cc1cc(Nc2cc(CN(C)C)cc(NC(=O)c3cc(CN(C)C)cc(Nc4ccnc5ccccc45)c3)c2)nc(N)n1,human DNA polymerase theta,inhibitor,,,14000 nM
COCOC[C@H]1O[C@H](O[C@H]2[C@H](O[C@@H]3O[C@H](CO)[C@@H](O[C@H]4O[C@@H](CN)[C@@H](O)[C@H](O)[C@H]4N)[C@H]3O)[C@@H](O)[C@H](N)C[C@@H]2N)[C@H](N)[C@@H](O)[C@@H]1OCOC,Mycobacterium smegmatis ribosome G1491C,"translation, cell-free luciferase synthesis",,,> 700 µg/mL
CCCCCCCCC(=O)NCc1ccc(O)c(OC)c1,mouse mAb 1-G12,"antibody binding, indirect competitive ELISA",,with: coating antigen 5-OVA,0.143 µg/mL
NC[C@@H]1O[C@H](O[C@H]2[C@@H](O)[C@H](O[C@@H]3[C@@H](O)[C@H](N)C[C@H](N)[C@H]3O[C@H]3O[C@H](CO)[C@@H](OCCCO)[C@H](O)[C@H]3N)O[C@@H]2CO)[C@H](N)[C@@H](O)[C@@H]1O,Mycobacterium smegmatis ribosome G1491C,"translation, cell-free luciferase synthesis",,,> 700 µg/mL
CC(=O)N[C@H]1CNC(=O)[C@H](Cc2ccccc2)NC(=O)[C@H](Cc2ccccc2)NC(=O)CCCCCCCNC1=O,AgrC (Staphylococcus aureus),"reporter gene, inhibitor","Staphylococcus aureus, AH1677 (USA300 LAC)",24 h,3940 nM
CC[C@H](C)[C@H](NC(=O)[C@H](C)NC(=O)[C@@H](N)Cc1c[nH]cn1)C(=O)N[C@@H](Cc1ccc(O)cc1)C(=O)N1CCC[C@H]1C(=O)N[C@@H](CCCNC(=N)N)C(=O)N[C@@H](Cc1c[nH]cn1)C(=O)N[C@H](CO)C(=O)N[C@H](Cc1c[nH]c2ccccc12)C(=O)N[C@@H](C(=O)N[C@H](Cc1c[nH]c2ccccc12)C(=O)N[C@H](CCC(=O)O)C(=O)N[C@H](CCCCN)C(=O)N[C@H](CCCCN)C(=O)N[C@H](CC(C)C)C(=O)N[C@H](CCC(=O)O)C(=O)N[C@@H](C(=O)N[C@H](C)C(=O)N[C@@H](C(=O)N[C@H](CC(N)=O)C(=O)N[C@H](CC(C)C)C(=O)N[C@H](C)C(=O)N[C@H](Cc1c[nH]c2ccccc12)C(=O)N[C@@H](C(=O)N[C@H](C)C(=O)NCC(=O)N[C@H](CC(N)=O)C(=O)N[C@H](CO)C(=O)N[C@H](CC(N)=O)C(=O)N[C@H](CCCCN)C(=O)N[C@H](Cc1c[nH]c2ccccc12)C(=O)N[C@@H](C(=O)N[C@H](Cc1c[nH]c2ccccc12)C(=O)N[C@H](CCCCN)C(=O)O)[C@H](C)O)[C@H](C)O)C(C)C)[C@H](C)O)[C@H](C)O,cell death,PI staining flow cytometry,MEC1,90 min,1800 nM
CCCS[C@H]1[C@H](O)[C@@H](N)[C@@H](O[C@H]2[C@H](O[C@@H]3O[C@H](CO)[C@@H](O[C@H]4O[C@@H](CN)[C@@H](O)[C@H](O)[C@H]4N)[C@H]3O)[C@@H](O)[C@H](N)C[C@@H]2N)O[C@@H]1CO,wild-type bacterial ribosome,"cell-free translation, inhibitor",,,0.07 µg/mL
CC[C@@H]1CN2CCc3c([nH]c4cccc(OC)c34)[C@@H]2C[C@@H]1/C(=C\OC)C(=O)OC,anti-compound rabbit polyclonal IgG,"antibody binding, competitive indirect ELISA",,no pre-incubation,5.96 µg/mL
CC(=O)N[C@H]1CSC(=O)[C@H](Cc2ccccc2)NC(=O)[C@H](Cc2ccccc2)NC(=O)COCCOCCNC1=O,AgrC (Staphylococcus aureus),"reporter gene, inhibitor","Staphylococcus aureus, AH1677 (USA300 LAC)",24 h,181 nM
CCCCO[C@H]1[C@H](O)[C@@H](N)[C@@H](O[C@H]2[C@H](O[C@@H]3O[C@H](CO)[C@@H](O[C@H]4O[C@@H](CN)[C@@H](O)[C@H](O)[C@H]4N)[C@H]3O)[C@@H](O)[C@H](N)C[C@@H]2N)O[C@@H]1CO,Mycobacterium smegmatis ribosome G1491A,"translation, cell-free luciferase synthesis",,,90.9 ± 16.4 µg/mL
C=C[C@H]1CN2CCc3c([nH]c4cccc(OC)c34)[C@@H]2C[C@@H]1/C(=C\OC)C(=O)OC,rabbit anti-mitragynine polyclonal antibody,"antigen binding, competitor, competitive indirect ELISA",,0.001 to 50.0 µg/mL,1.33 µg/mL
C=CCO[C@H]1[C@H](O)[C@@H](N)[C@@H](O[C@H]2[C@H](O[C@@H]3O[C@H](CO)[C@@H](O[C@H]4O[C@@H](CN)[C@@H](O)[C@H](O)[C@H]4N)[C@H]3O)[C@@H](O)[C@H](N)C[C@@H]2N)O[C@@H]1CO,Mycobacterium smegmatis ribosome G1491C,"translation, cell-free luciferase synthesis",,,269 ± 18.9 µg/mL
CC(C)S[C@H]1[C@H](O)[C@@H](N)[C@@H](O[C@H]2[C@H](O[C@@H]3O[C@H](CO)[C@@H](O[C@H]4O[C@@H](CN)[C@@H](O)[C@H](O)[C@H]4N)[C@H]3O)[C@@H](O)[C@H](N)C[C@@H]2N)O[C@@H]1CO,"bacterial hybrid ribosome, human mitochondrial A site","cell-free translation, inhibitor",,,121 µg/mL
CCCO[C@H]1[C@H](O)[C@@H](N)[C@@H](O[C@H]2[C@H](O[C@@H]3O[C@H](CO)[C@@H](O[C@H]4O[C@@H](CN)[C@@H](O)[C@H](O)[C@H]4N)[C@H]3O)[C@@H](O)[C@H](N)C[C@@H]2N)O[C@@H]1CO,Mycobacterium smegmatis ribosome G1491C,"translation, cell-free luciferase synthesis",,,289 ± 149 µg/mL
NC[C@@H]1O[C@H](O[C@H]2[C@@H](O)[C@H](O[C@@H]3[C@@H](O)[C@H](N)C[C@H](N)[C@H]3O[C@H]3O[C@H](CO)[C@@H](CCO)[C@H](O)[C@H]3N)O[C@@H]2CO)[C@H](N)[C@@H](O)[C@@H]1O,"bacterial hybrid ribosome, human mitochondrial A site","cell-free translation, inhibitor",,,31 µg/mL
CC[C@H](C)[C@H](NC(=O)[C@@H](NC(=O)[C@H](CCCCN)NC(=O)[C@@H](NC(=O)[C@@H]1CCCN1[C@@H]1CN(C(=O)[C@@H](NC(=O)[C@@H](NC(=O)[C@@H](NC(=O)[C@@H](NC(=O)[C@@H](NC(=O)[C@@H](N)CCCCN)C(C)C)C(C)C)C(C)C)[C@@H](C)CC)[C@@H](C)O)CC[C@H]1NS(=O)(=O)c1ccc(C)cc1)[C@@H](C)O)C(C)C)C(=O)N[C@@H](CC(C)C)C(=O)N[C@@H](Cc1c[nH]cn1)C(N)=O,Tau-ΔK280 microtubule interaction,Tau effective diffusion,differentiated PC-12 expressing Tau-ΔK280,"24 h, DMSO 0.125%",24000 nM
